Measured values from different studies.
Lines come from different studies, so protocols differ. Numbers after ± are the reported error.

Structure (SMILES)	target	assay	test system	setting	inhibition
O=c1cc(-c2ccccc2)oc2cc(O)cc(O)c12	bovine serum albumin	methylglyoxal-mediated glycation, fluorescence	–	concentration not given	54 ± 2.71%
CCN1CCN(Cc2ccc(NC(=O)c3ccc(C)c(Oc4ccnc5[nH]ccc45)c3)cc2C(F)(F)F)CC1	ERK1/2 human	–	Huh-7	10 µM	-39.1%
O=c1cc(-c2ccc(O)c(O)c2)oc2c(Br)c(O)c(Br)c(O)c12	bovine serum albumin	methylglyoxal-mediated glycation, fluorescence	–	concentration not given	95.4 ± 1.41%
Cc1ccc(Nc2nccc(N(C)c3ccc4c(C)n(C)nc4c3)n2)cc1S(N)(=O)=O	AMPK (rat)	kinase activity, inhibitor	–	0.3 µM	1%
Cc1cc(F)cc2c(CCC(=O)N[C@@H]3C(=O)NC[C@H]3O)c(-c3ccc(F)cc3)[nH]c12	GABAB receptor, non-selective	binding	–	10 µM	1%
CNCc1ccc(-c2cc(-c3nc(-c4ccc(S(=O)(=O)C(C)C)cc4)cnc3N)on2)cc1	AMPK (rat)	inhibitor	–	0.4 µM, added: ATP at Km	0%
COc1cc(NC(C)=O)c(Cl)cc1C(=O)Nc1nccs1	KATP channel	–	–	10 µM	-1.6%
O=C(NOCC(O)CO)c1cc(Br)c(F)c(F)c1Nc1ccc(I)cc1F (centres unmarked)	TDO	kynurenine production	A-172	1 µM	20%
O=C1C[C@@H](c2ccccc2)Oc2cc(O)cc(O)c21	bovine serum albumin	methylglyoxal-mediated glycation, fluorescence	–	concentration not given	47.6 ± 3.64%
O=C(c1ccc(Cl)cc1)N(Cc1ccccc1)C1CCCCC1	GABA transporter	–	–	10 µM	-8.8%
CCN(CC)CCNC(=O)c1c(C)[nH]c(/C=C2\C(=O)Nc3ccc(F)cc32)c1C	AMPK (rat)	kinase activity, inhibitor	–	0.3 µM	7%
O=c1c(O)c(-c2ccc(O)c(O)c2)oc2cc(O)cc(O)c12	bovine serum albumin	methylglyoxal-mediated glycation, fluorescence	–	concentration not given	99.8 ± 2.03%
Oc1cccc(Nc2nc(-c3ccc(F)cc3F)cs2)c1	KATP channel	–	–	10 µM	-15.6%
C#Cc1cc(-c2cc(Nc3nc(N[C@@H](C)c4ccc(F)cn4)ncc3Cl)n[nH]2)ccc1C=O	LYN B kinase, human	enzyme activity	–	0.2 µM	-4.35%

A few entries again:
Structure (SMILES)	target	assay	test system	setting	inhibition
O=C(NOCC(O)CO)c1cc(Br)c(F)c(F)c1Nc1ccc(I)cc1F (centres unmarked)	TDO	kynurenine production	A-172	1 µM	20%
O=C1C[C@@H](c2ccccc2)Oc2cc(O)cc(O)c21	bovine serum albumin	methylglyoxal-mediated glycation, fluorescence	–	concentration not given	47.6 ± 3.64%
